Measured values of several laboratories.
Each line is one published result; not all experiments were run side by side. pEC50, pIC50, pKd, pKi: −log10 of the molar value.
CSNK1D: Casein kinase I isoform delta (CSNK1D, Homo sapiens, UniProt P48730)
Sequence of UniProt P48730 (whole entry, looked up): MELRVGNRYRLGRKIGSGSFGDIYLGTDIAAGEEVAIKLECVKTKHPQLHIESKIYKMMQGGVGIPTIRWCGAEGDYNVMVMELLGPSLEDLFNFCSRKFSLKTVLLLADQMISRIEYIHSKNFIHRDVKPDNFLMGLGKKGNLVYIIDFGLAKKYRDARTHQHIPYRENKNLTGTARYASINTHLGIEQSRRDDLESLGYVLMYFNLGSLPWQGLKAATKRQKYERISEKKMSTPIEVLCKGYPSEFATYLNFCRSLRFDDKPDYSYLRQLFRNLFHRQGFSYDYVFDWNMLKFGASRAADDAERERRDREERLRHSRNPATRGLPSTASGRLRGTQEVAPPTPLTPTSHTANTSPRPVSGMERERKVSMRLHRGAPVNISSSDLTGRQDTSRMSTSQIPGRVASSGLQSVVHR
MTNR1A: Melatonin receptor type 1A (MTNR1A, Homo sapiens, UniProt P48039)
Sequence of UniProt P48039 (whole entry, looked up): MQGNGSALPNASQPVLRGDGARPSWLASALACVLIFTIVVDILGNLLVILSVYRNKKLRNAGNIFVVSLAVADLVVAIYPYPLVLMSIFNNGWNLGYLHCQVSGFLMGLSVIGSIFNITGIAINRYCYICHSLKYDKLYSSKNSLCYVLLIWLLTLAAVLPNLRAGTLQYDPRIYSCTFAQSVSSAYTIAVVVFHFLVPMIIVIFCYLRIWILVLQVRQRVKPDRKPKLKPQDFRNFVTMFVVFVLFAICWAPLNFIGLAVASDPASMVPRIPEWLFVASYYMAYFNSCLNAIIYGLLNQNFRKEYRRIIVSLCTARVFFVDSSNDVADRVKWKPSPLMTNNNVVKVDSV
CA9: Carbonic anhydrase 9 (CA9, Homo sapiens, UniProt Q16790)
CSNK1A1: Casein kinase I isoform alpha (CSNK1A1, Homo sapiens, UniProt P48729)
Sequence of UniProt P48729 (whole entry, looked up): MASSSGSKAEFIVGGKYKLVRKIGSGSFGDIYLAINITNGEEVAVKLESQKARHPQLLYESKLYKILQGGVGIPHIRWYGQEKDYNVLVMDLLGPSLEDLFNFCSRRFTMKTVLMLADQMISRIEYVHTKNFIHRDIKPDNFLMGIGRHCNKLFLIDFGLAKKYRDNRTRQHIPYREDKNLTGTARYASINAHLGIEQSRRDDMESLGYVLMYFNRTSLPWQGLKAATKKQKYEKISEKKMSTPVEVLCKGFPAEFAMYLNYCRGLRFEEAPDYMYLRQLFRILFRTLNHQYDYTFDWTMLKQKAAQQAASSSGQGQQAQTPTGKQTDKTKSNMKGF
Sequence of UniProt P0DMS8 (whole entry, unmodified, looked up): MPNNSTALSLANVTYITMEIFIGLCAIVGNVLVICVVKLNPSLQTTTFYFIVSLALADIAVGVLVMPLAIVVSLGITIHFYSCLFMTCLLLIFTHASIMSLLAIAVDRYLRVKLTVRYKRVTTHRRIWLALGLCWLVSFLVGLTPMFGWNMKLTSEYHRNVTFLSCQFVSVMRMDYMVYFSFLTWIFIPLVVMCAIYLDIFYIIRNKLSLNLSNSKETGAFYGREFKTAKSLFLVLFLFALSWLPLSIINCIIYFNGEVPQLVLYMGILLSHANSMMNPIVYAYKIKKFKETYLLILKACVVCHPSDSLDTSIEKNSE
Sequence of UniProt Q47319 (whole entry, unmodified, looked up): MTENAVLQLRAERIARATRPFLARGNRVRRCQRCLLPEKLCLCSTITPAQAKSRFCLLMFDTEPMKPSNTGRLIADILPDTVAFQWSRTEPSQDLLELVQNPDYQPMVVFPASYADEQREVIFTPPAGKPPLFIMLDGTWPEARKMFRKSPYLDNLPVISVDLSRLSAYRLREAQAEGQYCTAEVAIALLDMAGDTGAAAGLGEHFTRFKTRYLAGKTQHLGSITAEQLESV
Sequence of UniProt O15530 (whole entry, looked up): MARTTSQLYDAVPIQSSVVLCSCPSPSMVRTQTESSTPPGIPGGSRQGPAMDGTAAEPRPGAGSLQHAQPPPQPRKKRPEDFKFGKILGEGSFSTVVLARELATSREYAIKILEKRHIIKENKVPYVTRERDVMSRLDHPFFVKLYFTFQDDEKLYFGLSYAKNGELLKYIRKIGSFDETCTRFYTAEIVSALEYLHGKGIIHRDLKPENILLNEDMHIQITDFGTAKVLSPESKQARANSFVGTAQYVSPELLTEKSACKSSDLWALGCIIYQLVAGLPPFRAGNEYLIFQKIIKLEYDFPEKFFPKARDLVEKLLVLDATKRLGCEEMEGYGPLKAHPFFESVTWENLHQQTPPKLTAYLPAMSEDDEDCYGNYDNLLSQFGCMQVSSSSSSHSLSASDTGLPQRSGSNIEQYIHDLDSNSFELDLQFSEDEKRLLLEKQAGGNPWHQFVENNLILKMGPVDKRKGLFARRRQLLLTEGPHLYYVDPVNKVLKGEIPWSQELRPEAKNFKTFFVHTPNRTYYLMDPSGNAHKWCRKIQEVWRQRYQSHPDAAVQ
Sequence of UniProt Q05655 (whole entry, looked up): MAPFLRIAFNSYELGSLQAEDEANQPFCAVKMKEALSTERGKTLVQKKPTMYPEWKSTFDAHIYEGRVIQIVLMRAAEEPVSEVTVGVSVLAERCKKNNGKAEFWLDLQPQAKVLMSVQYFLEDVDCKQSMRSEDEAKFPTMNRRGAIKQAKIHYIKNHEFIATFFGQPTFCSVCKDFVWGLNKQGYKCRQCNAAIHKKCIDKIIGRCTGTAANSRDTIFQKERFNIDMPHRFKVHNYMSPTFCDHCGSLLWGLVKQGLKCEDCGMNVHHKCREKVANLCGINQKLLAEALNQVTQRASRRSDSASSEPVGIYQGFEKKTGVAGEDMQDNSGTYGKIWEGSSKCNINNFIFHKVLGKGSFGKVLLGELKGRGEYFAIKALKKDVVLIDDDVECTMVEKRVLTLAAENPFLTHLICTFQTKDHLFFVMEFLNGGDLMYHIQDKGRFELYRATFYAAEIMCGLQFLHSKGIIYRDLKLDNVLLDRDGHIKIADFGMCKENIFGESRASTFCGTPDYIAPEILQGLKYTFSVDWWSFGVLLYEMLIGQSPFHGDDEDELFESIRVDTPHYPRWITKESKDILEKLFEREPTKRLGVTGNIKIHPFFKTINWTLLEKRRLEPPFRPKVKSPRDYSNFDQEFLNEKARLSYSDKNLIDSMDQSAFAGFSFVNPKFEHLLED
Sequence of UniProt P11802 (whole entry, looked up): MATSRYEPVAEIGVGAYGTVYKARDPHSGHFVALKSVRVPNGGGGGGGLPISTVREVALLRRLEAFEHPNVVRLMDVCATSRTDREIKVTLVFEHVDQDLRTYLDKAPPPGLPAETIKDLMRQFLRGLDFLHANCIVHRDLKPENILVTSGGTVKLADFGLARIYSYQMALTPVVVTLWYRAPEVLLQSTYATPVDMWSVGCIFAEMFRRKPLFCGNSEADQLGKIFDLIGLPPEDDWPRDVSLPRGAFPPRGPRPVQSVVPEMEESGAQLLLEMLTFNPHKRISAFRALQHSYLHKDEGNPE
Sequence of UniProt Q16581 (whole entry, looked up): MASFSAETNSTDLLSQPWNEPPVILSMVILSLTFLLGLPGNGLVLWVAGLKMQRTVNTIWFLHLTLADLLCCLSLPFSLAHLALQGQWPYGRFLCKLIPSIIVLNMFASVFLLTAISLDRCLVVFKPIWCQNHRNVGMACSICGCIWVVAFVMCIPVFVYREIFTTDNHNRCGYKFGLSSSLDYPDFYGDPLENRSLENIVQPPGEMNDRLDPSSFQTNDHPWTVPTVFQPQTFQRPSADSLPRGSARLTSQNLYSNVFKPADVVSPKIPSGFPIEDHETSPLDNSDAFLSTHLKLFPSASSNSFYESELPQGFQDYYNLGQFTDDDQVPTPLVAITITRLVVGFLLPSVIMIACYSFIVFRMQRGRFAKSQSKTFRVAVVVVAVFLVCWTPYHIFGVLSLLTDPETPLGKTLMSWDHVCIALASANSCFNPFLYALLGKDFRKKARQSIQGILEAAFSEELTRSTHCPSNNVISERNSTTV
Sequence of UniProt P41595 (whole entry, looked up): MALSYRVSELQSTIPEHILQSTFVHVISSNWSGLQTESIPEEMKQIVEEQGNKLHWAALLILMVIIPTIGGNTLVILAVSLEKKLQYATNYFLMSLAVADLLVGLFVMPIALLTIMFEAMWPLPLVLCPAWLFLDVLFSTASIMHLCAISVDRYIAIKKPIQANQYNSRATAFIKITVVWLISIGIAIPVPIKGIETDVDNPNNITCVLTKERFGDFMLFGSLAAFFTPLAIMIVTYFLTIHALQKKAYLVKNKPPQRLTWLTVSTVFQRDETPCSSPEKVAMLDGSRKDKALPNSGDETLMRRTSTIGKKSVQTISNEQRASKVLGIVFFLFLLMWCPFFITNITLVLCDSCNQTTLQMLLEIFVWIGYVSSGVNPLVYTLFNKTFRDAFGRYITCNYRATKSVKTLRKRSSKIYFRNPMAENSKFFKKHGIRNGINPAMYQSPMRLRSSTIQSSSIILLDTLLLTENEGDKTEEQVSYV
Sequence of UniProt P35626 (whole entry, looked up): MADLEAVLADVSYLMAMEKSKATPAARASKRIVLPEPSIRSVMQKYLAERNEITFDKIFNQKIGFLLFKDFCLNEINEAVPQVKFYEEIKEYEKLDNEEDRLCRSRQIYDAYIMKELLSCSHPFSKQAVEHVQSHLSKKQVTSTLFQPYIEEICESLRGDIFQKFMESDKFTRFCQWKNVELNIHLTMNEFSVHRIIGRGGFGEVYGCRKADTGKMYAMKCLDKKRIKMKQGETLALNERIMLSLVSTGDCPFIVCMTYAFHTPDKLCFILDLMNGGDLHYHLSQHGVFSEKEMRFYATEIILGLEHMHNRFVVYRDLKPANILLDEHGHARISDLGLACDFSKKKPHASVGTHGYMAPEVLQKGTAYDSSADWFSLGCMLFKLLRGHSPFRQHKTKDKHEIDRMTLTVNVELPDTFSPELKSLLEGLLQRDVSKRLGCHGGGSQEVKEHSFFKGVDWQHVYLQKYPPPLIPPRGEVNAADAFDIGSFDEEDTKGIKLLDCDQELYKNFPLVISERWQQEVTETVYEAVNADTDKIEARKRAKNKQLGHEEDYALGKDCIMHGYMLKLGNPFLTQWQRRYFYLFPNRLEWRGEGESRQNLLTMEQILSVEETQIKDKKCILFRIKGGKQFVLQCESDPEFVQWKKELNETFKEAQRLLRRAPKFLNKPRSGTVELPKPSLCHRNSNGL

COC(=O)c1ccc(N)cc1Cl
pKd (CSNK1D; binding, SPR): < 4.30

COC(=O)c1sc(N(C)Cc2cccc(O)c2)nc1Cl
pEC50 (MTNR1A; cAMP, agonist, luciferase): 7.66

Cn1cc(-c2ccc(Cn3c(C(=O)Nc4ccc(S(N)(=O)=O)cc4)cc4sccc43)cc2)nn1
pIC50 (CA9; enzyme activity, inhibitor): 8.94

C=CC(=O)N1CCC(COCC(=O)N2CCN(c3nc(-c4cnc(N)nc4C(F)F)nc(N4CCOC[C@@H]4C)n3)CC2)CC1
remaining binding (G protein-coupled receptor kinase 3 (GRK3, Homo sapiens, UniProt P35626); binding, competition with immobilised ligand; 1 µM): 73%

N#C[C@@]12C[C@@H]1[C@@H](n1cnc3c(NC45CC(C4)C5)nc(I)nc31)[C@H](O)[C@@H]2O
pKi (5-hydroxytryptamine receptor 2B (HTR2B, Homo sapiens, UniProt P41595); ligand displacement, radioligand): 7.71

Cc1ccc(NC(=O)Nc2cccc3c2CCN(C(=O)c2ccc(S(N)(=O)=O)c(C)c2)C3)cc1
pIC50 (CA9; enzyme activity, inhibitor): 7.42

CN(C)c1ncnc2c1ncn2[C@@H]1O[C@H](CO)[C@@H](O)[C@H]1O
pEC50 (Adenosine receptor A3 (ADORA3, Homo sapiens, UniProt P0DMS8, I253A); G protein activation, agonist): 4.77

CNC(=O)c1ccc(-n2nc(C(=O)Nc3ccc(S(N)(=O)=O)cc3)cc2-c2ccco2)cc1
pIC50 (CA9; enzyme activity, inhibitor): 8.00

CNc1ncc2c(/C=C/C(=O)N3CCC(OC)CC3)nn(Cc3cccc(C(F)(F)F)c3)c2n1
remaining activity (Cyclin-dependent kinase 4, with cyclin D1 (CDK4, Homo sapiens, UniProt P11802); enzyme activity, inhibitor, radiometric; 1 µM): 96%

CCN1CCc2c(sc(NC(=O)c3ccc(OC)cc3OC)c2C(N)=O)C1
pKd (CSNK1D; binding, SPR): < 4.30

CC1CCN(C(CNC(=O)Nc2ccc(S(N)(=O)=O)cc2)c2cccs2)CC1 (centres unmarked)
pIC50 (CA9; enzyme activity, inhibitor): 6.91

CC(C)=CCNc1ncnc2c1ncn2[C@@H]1O[C@H](CO)[C@@H](O)[C@H]1O
pEC50 (Adenosine receptor A3 (ADORA3, Homo sapiens, UniProt P0DMS8, I253N); G protein activation, agonist): 7.35

Cc1cccc(N(O)N=Nc2ccc(S(=O)(=O)Nc3cc(C)on3)cc2)c1
inhibition (DPPH scavenging, absorbance; 20 µg/mL): 27.9%

COc1ccc(-c2oc3ncnc(NCCCN4CCOCC4)c3c2-c2ccc(OC)cc2)cc1
pKd (CSNK1D; binding, SPR): < 4.30

Cc1cc([C@@H](C)Nc2ccccc2C(=O)O)c2nc(N3CCC(F)(F)CC3)c(C#N)c(=O)n2c1
remaining binding (3-phosphoinositide-dependent protein kinase 1 (PDPK1, Homo sapiens, UniProt O15530); binding, competition with immobilised ligand; 1 µM): 100%

Cc1ccc(NC(=S)NCc2ccc(S(N)(=O)=O)cc2)cc1NC(=O)CN1CCCCC1
pIC50 (CA9; enzyme activity, inhibitor): 6.90

COCc1n[nH]c(N)c1-c1ccc(Cl)cc1
pKd (CSNK1A1; binding, SPR): < 4.30

COc1ccc(CN(C(=O)CC2CC2C)c2ccncc2)cc1 (centres unmarked)
pEC50 (MTNR1A; cAMP, agonist, luciferase): 6.08

C[S+](CC[C@H](N)C(=O)O)C[C@H]1O[C@@H](n2cnc3c(N)ncnc32)[C@H](O)[C@@H]1O (some centres unmarked)
pKd (tapT (Escherichia coli, UniProt Q47319, T182A); binding, ITC): 3.33

Cc1n[nH]c(N)c1-c1ccccc1
pKd (CSNK1D; binding, SPR): < 4.30

Cc1cnc(-c2ccc(-c3ccc(NC(=O)Nc4c(F)cc(F)cc4F)cc3F)c3c2C(=O)NC3)[nH]1
pKd (Mitogen-activated protein kinase kinase kinase 19 (MAP3K19, Homo sapiens, UniProt Q56UN5); binding, competition with immobilised ligand): 8.41

Cc1cc(Oc2ncccc2CN2CCN(c3cc(Cl)cc(Cl)c3)CC2)ccc1-c1c(C)c(=O)[nH]c(=O)n1C
pKi (Alpha-2A adrenergic receptor (ADRA2A, Homo sapiens, UniProt P08913); ligand displacement, radioligand): 6.06

NS(=O)(=O)c1ccc(Br)c(C(=O)Nc2cccc(NC(=O)c3ccco3)c2)c1
pIC50 (CA9; enzyme activity, inhibitor): 7.04

CCCCC(=O)Nc1ccc(-c2ccc3ncn(CCC)c(=O)c3c2)cn1
remaining binding (Protein kinase C delta type (PRKCD, Homo sapiens, UniProt Q05655); binding, competition with immobilised ligand; 0.5 µM): 100%

COc1cc(-c2cncc3c2CN(C)Cc2cc(N4CCNCC4)ccc2-3)cc(OC)c1OC
remaining activity (Serine/threonine-protein kinase pim-1 (PIM1, Homo sapiens, UniProt P11309); enzyme activity, inhibitor; 1 µM): 105%

COC(=O)c1sc(N(C)Cc2ccc3c(c2)OCO3)nc1Cl
pEC50 (MTNR1A; cAMP, agonist, luciferase): 8.00

Cn1cc(-c2ccc3oc(C(=O)NC4CCCN(CC(=O)Nc5ccc(S(N)(=O)=O)cc5)C4)cc3c2)nn1 (centres unmarked)
pIC50 (CA9; enzyme activity, inhibitor): 7.48

NC(=O)c1ccc(N)cc1Cl
pKd (CSNK1A1; binding, SPR): < 4.30

COc1c(F)cc(F)cc1NCc1ccc(-c2ccn[nH]2)o1
pEC50 (MTNR1A; cAMP, agonist, luciferase): 6.99

O=c1[nH]c(=O)c2c[nH]nc2[nH]1
pKd (CSNK1A1; binding, SPR): < 4.30

CCOC(=O)c1cccnc1N(C)CCc1cnccn1
pEC50 (MTNR1A; cAMP, agonist, luciferase): 5.55

NS(=O)(=O)c1ccc(NC(=S)N(Cc2cccc(O)c2)CC2CC2)cc1
pIC50 (CA9; enzyme activity, inhibitor): 7.68

CCOc1ccc(CNc2ccc(C)nc2)cc1
pEC50 (MTNR1A; cAMP, agonist, luciferase): 5.60

CCCN(O)N=Nc1ccc(S(=O)(=O)Nc2onc(C)c2C)cc1
inhibition (DPPH scavenging, absorbance; 240 µg/mL): 24.9%

COc1ccc2c(c1)N(Cc1ccc(C(N)=O)cc1)CCO2
pEC50 (MTNR1A; cAMP, agonist, luciferase): 9.60

CC(C)C[C@H](NC(=O)[C@@H](N)[C@@H](C)O)C(=O)N[C@@H](CCC(N)=O)C(=O)N1CCC[C@H]1C(=O)N1CCC[C@H]1C(=O)N[C@@H](C)C(=O)N[C@@H](CO)C(=O)N[C@@H](CO)C(=O)N[C@@H](CCCNC(=N)N)C(=O)N[C@H](CCCNC(=N)N)C(=O)N[C@@H](CCCNC(=N)N)C(=O)N[C@@H](Cc1c[nH]cn1)C(=O)N[C@@H](Cc1ccccc1)C(=O)N[C@@H](Cc1c[nH]cn1)C(=O)N[C@@H](Cc1c[nH]cn1)C(=O)N[C@@H](C)C(=O)N[C@@H](CC(C)C)C(=O)N1CCC[C@H]1C(=O)N1CCC[C@H]1C(=O)N[C@H](C)C(=O)N[C@@H](CCCNC(=N)N)C(=O)O
pEC50 (C3a anaphylatoxin chemotactic receptor (C3AR1, Homo sapiens, UniProt Q16581); β-arrestin recruitment, agonist): 7.06

OCc1cccc2ccncc12
pKd (CSNK1A1; binding, SPR): < 4.30

COc1ccc2c(c1)N(Cc1ccnc(OC)n1)CCO2
pEC50 (MTNR1A; cAMP, agonist, luciferase): 6.87

Some of these lines once more:
CC1CCN(C(CNC(=O)Nc2ccc(S(N)(=O)=O)cc2)c2cccs2)CC1 (centres unmarked)
pIC50 (CA9; enzyme activity, inhibitor): 6.91

CC(C)=CCNc1ncnc2c1ncn2[C@@H]1O[C@H](CO)[C@@H](O)[C@H]1O
pEC50 (Adenosine receptor A3 (ADORA3, Homo sapiens, UniProt P0DMS8, I253N); G protein activation, agonist): 7.35

Cc1cccc(N(O)N=Nc2ccc(S(=O)(=O)Nc3cc(C)on3)cc2)c1
inhibition (DPPH scavenging, absorbance; 20 µg/mL): 27.9%

COc1ccc(-c2oc3ncnc(NCCCN4CCOCC4)c3c2-c2ccc(OC)cc2)cc1
pKd (CSNK1D; binding, SPR): < 4.30
